Measured values of several laboratories.
± gives the spread as reported.
Method: steady-state kinetics
B1: Mj-MAT W387F (Methanocaldococcus jannaschii, UniProt Q58605); chain MRNIIVKKLDVEPIEERPTEIVERKGLGHPDSICDGIAESVSRALCKMYMEKFGTILHHNTDQVELVGGHAYPKFGGGVMVSPIYILLSGRATMEILDKEKNEVIKLPVGTTAVKAAKEYLKKVLRNVDVDKDVIIDCRIGQGSMDLVDVFERQKNEVPLANDTSFGVGYAPLSTTERLVLETERFLNSDELKNEIPAVGEDIKVMGLREGKKITLTIAMAVVDRYVKNIEEYKEVIEKVRKKVEDLAKKIADGYEVEIHINTADDYERESVYLTVTGTSAEMGDDGSVGRGNRVNGLITPFRPMSMEAASGKNPVNHVGKIYNILANLIANDIAKLEGVKECYVRILSQIGKPINEPKALDIEIITEDSYDIKDIEPKAKEIANKFLDNIMEVQKMIVEGKVTTF
B2: carbamoyl phosphate synthetase large subunit A23F/C24F/I18W (Escherichia coli, UniProt P00968); chain PKRTDIKSILILGAGPWVIGQFFEFDYSGAQACKALREEGYRVILVNSNPATIMTDPEMADATYIEPIHWEVVRKIIEKERPDAVLPTMGGQTALNCALELERQGVLEEFGVTMIGATADAIDKAEDRRRFDVAMKKIGLETARSGIAHTMEEALAVAADVGFPCIIRPSFTMGGSGGGIAYNREEFEEICARGLDLSPTKELLIDESLIGWKEYEMEVVRDKNDNCIIVCSIENFDAMGIHTGDSITVAPAQTLTDKEYQIMRNASMAVLREIGVETGGSNVQFAVNPKNGRLIVIEMNPRVSRSSALASKATGFPIAKVAAKLAVGYTLDELMNDITGGRTPASFEPSIDYVVTKIPRFNFEKFAGANDRLTTQMKSVGEVMAIGRTQQESLQKALRGLEVGATGFDPKVSLDDPEALTKIRRELKDAGADRIWYIADAFRAGLSVDGVFNLTNIDRWFLVQIEELVRLEEKVAEVGITGLNADFLRQLKRKGFADARLAKLAGVREAEIRKLRDQYDLHPVYKRVDTCAAEFATDTAYMYSTYEEECEANPSTDREKIMVLGGGPNRIGQGIEFDYCCVHASLALREDGYETIMVNCNPETVSTDYDTSDRLYFEPVTLEDVLEIVRIEKPKGVIVQYGGQTPLKLARALEAAGVPVIGTSPDAIDRAEDRERFQHAVERLKLKQPANATVTAIEMAVEKAKEIGYPLVVRPSYVLGGRAMEIVYDEADLRRYFQTAVSVSNDAPVLLDHFLDDAVEVDVDAICDGEMVLIGGIMEHIEQAGVHSGDSACSLPAYTLSQEIQDVMRQQVQKLAFELQVRGLMNVQFAVKNNEVYLIEVNPRAARTVPFVSKATGVPLAKVAARVMAGKSLAEQGVTKEVIPPYYSVKEVVLPFNKFPGVDPLLGPEMRSTGEVMGVGRTFAEAFAKAQLGSNSTMKKHGRALLSVREGDKERVVDLAAKLLKQGFELDATHGTAIVLGEAGINPRLVNKVHEGRPHIQDRIKNGEYTYIINTTSGRRAIEDSRVIRRSALQYKVHYDTTLNGGFATAMALNADATEKVISVQEMHAQIK
B3: Nudt8 (Mus musculus, UniProt Q9CR24); chain MLPDGLSAEDEQRCRQLLARTTARLRSRPAAAAVLVPLCLVRGVPALLYTLRSSRLVGRHKGEVSFPGGKCDPDDQDVIHTALRETQEELGLEVPKEHVWGVLQPVYDREKATIVPVLANVGPLDLQSLRPNLEEVDEVFEMSLAHLLQTQNQGYTHFCQGGHFSYTLPVFLHGPHRVWGLTAVITELTLKLLAPGFYQPSLAVPELPRG
B4: GTPBP3 E159V (Homo sapiens, UniProt Q969Y2); chain TRRSSGAPAPGSGATIFALSSGQGRCGIAVIRTSGPASGHALRILTAPRDLPLARHASLRLLSDPRSGEPLDRALVLWFPGPQSFTGEDCVEFHVHGGPAVVSGVLQALGSVPGLRPAEAGEFTRRAFANGKLNLTEVVGLADLIHAETEAQRRQALRQLDGELGHLCRGWAETLTKALAHVEAYIDFGEDDNLEEGVLEQADIEVRALQVALGAHLRDARRGQRLRSGVHVVVTGPPNAGKSSLVNLLSRKPVSIVSPEPGTTRDVLETPVDLAGFPVLLSDTAGLREGVGPVEQEGVRRARERLEQADLILAMLDASDLASPSSCNFLATVVASVGAQSPSDSSQRLLLVLNKSDLLSPEGPGPGPDLPPHLLLSCLTGEGLDGLLEALRKELAAVCGDPSTDPPLLTRARHQHHLQGCLDALGHYKQSKDLALAAEALRVARGHLTRLTGGGGTEEILDIIFQDFCVGK
B5: engA (Bacillus subtilis, UniProt P50743); chain MGKPVVAIVGRPNVGKSTIFNRIAGERISIVEDTPGVTRDRIYSSAEWLNYDFNLIDTGGIDIGDEPFLAQIRQQAEIAMDEADVIIFMVNGREGVTAADEEVAKILYRTKKPVVLAVNKLDNTEMRANIYDFYSLGFGEPYPISGTHGLGLGDLLDAVAEHFKNIPETKYNEEVIQFCLIGRPNVGKSSLVNAMLGEERVIVSNVAGTTRDAVDTSFTYNQQEFVIVDTAGMRKKGKVYETTEKYSVLRALKAIDRSEVVAVVLDGEEGIIEQDKRIAGYAHEAGKAVVIVVNKWDAVDKDESTMKEFEENIRDHFQFLDYAPILFMSALTKKRIHTLMPAIIKASENHSLRVQTNVLNDVIMDAVAMNPTPTHNGSRLKIYYATQVSVKPPSFVVFVNDPELMHFSYERFLENRIRDAFGFEGTPIKIFARARK
B6: Pck1 A467G (Rattus norvegicus, UniProt P07379); chain MPPQLHNGLDFSAKVIQGSLDSLPQEVRKFVEGNAQLCQPEYIHICDGSEEEYGRLLAHMQEEGVIRKLKKYDNCWLALTDPRDVARIESKTVIITQEQRDTVPIPKSGQSQLGRWMSEEDFEKAFNARFPGCMKGRTMYVIPFSMGPLGSPLAKIGIELTDSPYVVASMRIMTRMGTSVLEALGDGEFIKCLHSVGCPLPLKKPLVNNWACNPELTLIAHLPDRREIISFGSGYGGNSLLGKKCFALRIASRLAKEEGWLAEHMLILGITNPEGKKKYLAAAFPSACGKTNLAMMNPTLPGWKVECVGDDIAWMKFDAQGNLRAINPENGFFGVAPGTSVKTNPNAIKTIQKNTIFTNVAETSDGGVYWEGIDEPLAPGVTITSWKNKEWRPQDEEPCAHPNSRFCTPASQCPIIDPAWESPEGVPIEGIIFGGRRPAGVPLVYEALSWQHGVFVGAAMRSEATAGAEHKGKVIMHDPFAMRPFFGYNFGKYLAHWLSMAHRPAAKLPKIFHVNWFRKDKNGKFLWPGFGENSRVLEWMFGRIEGEDSAKLTPIGYVPKEDALNLKGLGDVNVEELFGISKEFWEKEVEEIDKYLEDQVNADLPYEIERELRALKQRISQM
B7: asnB E349Q (Escherichia coli, UniProt P22106); chain CSIFGVFDIKTDAVELRKKALELSRLMRHRGPDWSGIYASDNAILAHERLSIVDVNAGAQPLYNQQKTHVLAVNGEIYNHQALRAEYGDRYQFQTGSDCEVILALYQEKGPEFLDDLQGMFAFALYDSEKDAYLIGRDHLGIIPLYMGYDEHGQLYVASEMKALVPVCRTIKEFPAGSYLWSQDGEIRSYYHRDWFDYDAVKDNVTDKNELRQALEDSVKSHLMSDVPYGVLLSGGLDSSIISAITKKYAARRVEDQERSEAWWPQLHSFAVGLPGSPDLKAAQEVANHLGTVHHEIHFTVQEGLDAIRDVIYHIETYDVTTIRASTPMYLMSRKIKAMGIKMVLSGQGSDEVFGGYLYFHKAPNAKELHEETVRKLLALHMYDCARANKAMSAWGVEARVPFLDKKFLDVAMRINPQDKMCGNGKMEKHILRECFEAYLPASVAWRQKEQFSDGVGYSWIDTLKEVAAQQVSDQQLETARFRFPYNTPTSKEAYLYREIFEELFPLPSAAECVPGGPSVACSSAKAIEWDEAFKKMDDPSGRAVGVHQSAYK
B8: Tcur_2987 (Thermomonospora curvata, UniProt D1A807); chain ACSEERAAGARPSATQTTGTATEPFHGPHQAGIATPPQAHAVFLGLDLRKGTGRKELGRLMRLLTDDARRLTQGRPALADPEPDLAPLPSRLTFTFGFGPGLFKAAGLEKQRPEGLRPLPPFKVDRLEDRWSGGDLLVQICCDDPITLAHALRMTVKDARAFTRVRWVQRGFRRSPGVQSSGATQRNLMGQLDGTVNPVPGTADFDQAVWVQDGPEWLRGGTTLVLRRIRMELEKWDEADPAGKEFAVGRRLTSGAPLTGRHEHDEPDFDAVDSAGFPVIAENAHIRLAHVDSPRLRMLRRPYNYDEGLTADGRSDAGLLFAAYQADIDRQFIPVQRRLDEGGDLLNLWTTPIGSAVFAIPPGCDENGWIGQGLLG

With `B1 (Mj-MAT W387F)` the kcat was 1.85 ± 0.08 s⁻¹ (CSCC[C@H](N)C(=O)O; 55 °C, added: ATP 2.5 mM, methionine 0.05-1 mM).
For `protein (Cecembia lonarensis, UniProt K1KV82)`, the kcat was 4.59 ± 0.37 s⁻¹ (C[C@@H]1O[C@@H](Oc2ccc([N+](=O)[O-])cc2)[C@@H](O)[C@H](O)[C@H]1O; pH 5.5, 35 °C).
With `B2` the kcat was 0.06 ± 0.002 s⁻¹ (Nc1ncnc2c1ncn2[C@@H]1O[C@H](COP(=O)(O)OP(=O)(O)OP(=O)(O)O)[C@@H](O)[C@H]1O; pH 7.6, KCl 100 mM, added: glutamine 10 mM, ornithine 10 mM).
`B3 (Nudt8)` has a kcat of 3.6 ± 0.133 s⁻¹ (CC(C)(COP(=O)(O)OP(=O)(O)OC[C@H]1O[C@@H](n2cnc3c(N)ncnc32)[C@H](O)[C@@H]1OP(=O)(O)O)[C@@H](O)C(=O)NCCC(=O)NCCS; pH 8.5, added: 2 mM Mn2+).
`B4 (GTPBP3 E159V)` gave a kcat of 0.0125 ± 0.00233 s⁻¹ (Nc1nc2c(ncn2[C@@H]2O[C@H](COP(=O)(O)OP(=O)(O)OP(=O)(O)O)[C@@H](O)[C@H]2O)c(=O)[nH]1; pH 8, 37 °C, KCl 300 mM).
`B5 (engA)` gave a kcat of 0.0228 ± 0.00119 s⁻¹ (Nc1nc2c(ncn2[C@@H]2O[C@H](COP(=O)(O)OP(=O)(O)OP(=O)(O)O)[C@@H](O)[C@H]2O)c(=O)[nH]1; pH 7.5, 37 °C, KCl 200 mM, free enzyme, apparent, added: GTP 0-1 mM).
With `B6 (Pck1 A467G)` the kcat was 14 ± 0.1 s⁻¹ (Nc1nc2c(ncn2[C@@H]2O[C@H](COP(=O)(O)OP(=O)(O)OP(=O)(O)O)[C@@H](O)[C@H]2O)c(=O)[nH]1; pH 7.5, 25 °C).
For `pgmB (Lactococcus lactis, UniProt P71447)`, the kcat was 0.0298 ± 0.008 s⁻¹ (O=P(O)(O)OC[C@H]1O[C@@H](OP(=O)(O)O)[C@H](O)[C@@H](O)[C@@H]1O; pH 7, 25 °C).
For `protein (Streptomyces coelicolor, UniProt Q9K464)`, the kcat was 0.216 ± 0.0243 s⁻¹ (CC(C)C(=O)CC(=O)SCCNC(=O)CCNC(=O)[C@H](O)C(C)(C)COP(=O)(O)OP(=O)(O)OC[C@H]1O[C@@H](n2cnc3c(N)ncnc32)[C@H](O)[C@@H]1OP(=O)(O)O; pH 7.8, 30 °C, NaCl 150 mM, added: methylmalonyl-CoA 1.0 mM).
`B7 (asnB E349Q)` gave a kcat of 4 ± 0.5 s⁻¹ (NC(=O)CC[C@H](N)C(=O)O; pH 8, 37 °C, 100 mM NaCl, glutaminase site, added: MgCl2; no ATP).
`B8 (Tcur_2987)` has a kcat of 96 ± 2 s⁻¹ (Nc1c(S(=O)(=O)O)cc(Nc2cccc(S(=O)(=O)CCOS(=O)(=O)O)c2)c2c1C(=O)c1ccccc1C2=O; pH 3, sigmoidal kinetics, added: H2O2 1 mM).
For `TIIAS (Salvia miltiorrhiza, UniProt A0A8K1XH31)`, the kcat was 0.6 ± 0.03 s⁻¹ (C[C@H]1COC2=C1C(=O)C(=O)c1c2ccc2c1CCCC2(C)C; pH 6.5, 20 °C).
